Assay results gathered from unrelated publications.
Parts stem from different laboratories: compare values within a part only. Several values in a cell are separate wells, animals, samples, runs or records.

Series 1 — effect on: enzyme activity; mode: inhibitor; concentration: 0.5 µM; reference: control; measurement: remaining activity
Target: Myosin light chain kinase 2, skeletal/cardiac muscle (MYLK2, Homo sapiens, UniProt Q9H1R3)
Sequence of UniProt Q9H1R3 (whole entry, looked up): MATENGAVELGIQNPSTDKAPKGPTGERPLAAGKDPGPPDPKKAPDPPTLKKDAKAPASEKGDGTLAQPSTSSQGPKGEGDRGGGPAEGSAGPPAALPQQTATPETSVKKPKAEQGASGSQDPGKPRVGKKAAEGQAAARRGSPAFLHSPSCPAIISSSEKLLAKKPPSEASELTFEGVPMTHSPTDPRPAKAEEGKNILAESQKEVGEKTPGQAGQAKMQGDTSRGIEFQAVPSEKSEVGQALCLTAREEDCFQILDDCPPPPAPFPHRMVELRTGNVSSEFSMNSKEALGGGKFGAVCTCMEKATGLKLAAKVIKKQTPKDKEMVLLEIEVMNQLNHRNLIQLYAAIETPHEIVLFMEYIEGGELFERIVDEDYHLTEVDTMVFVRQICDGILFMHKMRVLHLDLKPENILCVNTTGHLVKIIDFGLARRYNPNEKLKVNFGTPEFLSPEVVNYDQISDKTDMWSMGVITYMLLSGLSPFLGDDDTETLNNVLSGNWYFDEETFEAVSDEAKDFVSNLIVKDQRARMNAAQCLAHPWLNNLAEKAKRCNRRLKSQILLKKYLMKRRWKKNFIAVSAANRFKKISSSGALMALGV
SMILES = O=C(Nc1ccc(Cl)cc1)c1ccccc1NCc1ccncc1; value = 99.5%
SMILES = O=C1NC(=O)/C(=C/c2ccc3nccnc3c2)S1; value = 97.2%
SMILES = Cn1cnc2cc3c(Nc4cccc(Br)c4)ncnc3cc21; value = 87.6%
SMILES = COc1ccc(Cl)cc1NC(=O)Nc1cc(C)nc2ccccc12; value = 99.3%
SMILES = Nc1[nH]nc2nnc(-c3c(-c4ccccc4)nn4ccccc34)cc12; value = 101%
SMILES = C[S+]([O-])c1ccc(-c2nc(-c3ccncc3)c(-c3ccc(F)cc3)[nH]2)cc1 (centres unmarked); value = 99.9%
SMILES = CC(=O)O/N=C1/C(c2c(O)[nH]c3cc(Br)ccc23)=Nc2ccccc21; value = 55%
SMILES = Cc1ccc(NC(=O)c2ccc(CN3CCN(C)CC3)cc2)cc1Nc1nccc(-c2cccnc2)n1; value = 102%
SMILES = Cc1nc(Nc2ncc(C(=O)Nc3c(C)cccc3Cl)s2)cc(N2CCN(CCO)CC2)n1; value = 97.3%
SMILES = CCC(=O)Nc1ccc2ncnc(Nc3cccc(Br)c3)c2c1; value = 96.4%
SMILES = COc1ccc(-c2cnc3c(-c4ccsc4)cnn3c2)cc1; value = 75.6%
SMILES = COc1cc2ncc(-c3ccccc3)nc2cc1OC; value = 100%
SMILES = CC(C)[C@H](CO)Nc1nc(Nc2cccc(Cl)c2)c2ncn(C(C)C)c2n1; value = 97.1%
SMILES = CS(=O)(=O)CCNCc1ccc(-c2ccc3ncnc(Nc4ccc(OCc5cccc(F)c5)c(Cl)c4)c3c2)o1; value = 108%
SMILES = CC(C)c1nn(-c2c(Cl)cccc2Cl)c2nc(Cc3ccc(OCCO)cc3)[nH]c(=O)c12; value = 96.6%
SMILES = CCN1/C(=C/C(C)=O)Sc2ccc(OC)cc21; value = 95.1%
SMILES = COc1cc2ncnc(Nc3ccc(OCc4ccccc4)cc3)c2cc1OC; value = 97.5%
SMILES = O=c1cc(N2CCOCC2)oc2c1ccc1ccccc12; value = 97.7%
SMILES = CCOc1cc2ncnc(Nc3cccc(Br)c3)c2cc1OCC; value = 93.5%
SMILES = COc1cc2ncnc(N3CCN(C(=O)Nc4ccc(Oc5ccccc5)cc4)CC3)c2cc1OC; value = 94.6%
SMILES = CN(C)CCCn1cc(C2=C(c3c[nH]c4ccccc34)C(=O)NC2=O)c2ccccc21; value = 73.9%
SMILES = Cn1cc(/C=C2\C(=O)Nc3ccc(S(N)(=O)=O)cc32)c2ccccc21; value = 53.6%

Series 2 — mode: antagonist; measurement: IC50
Target: Beta-1 adrenergic receptor (ADRB1, Homo sapiens, UniProt P08588)
Sequence of UniProt P08588 (whole entry, looked up): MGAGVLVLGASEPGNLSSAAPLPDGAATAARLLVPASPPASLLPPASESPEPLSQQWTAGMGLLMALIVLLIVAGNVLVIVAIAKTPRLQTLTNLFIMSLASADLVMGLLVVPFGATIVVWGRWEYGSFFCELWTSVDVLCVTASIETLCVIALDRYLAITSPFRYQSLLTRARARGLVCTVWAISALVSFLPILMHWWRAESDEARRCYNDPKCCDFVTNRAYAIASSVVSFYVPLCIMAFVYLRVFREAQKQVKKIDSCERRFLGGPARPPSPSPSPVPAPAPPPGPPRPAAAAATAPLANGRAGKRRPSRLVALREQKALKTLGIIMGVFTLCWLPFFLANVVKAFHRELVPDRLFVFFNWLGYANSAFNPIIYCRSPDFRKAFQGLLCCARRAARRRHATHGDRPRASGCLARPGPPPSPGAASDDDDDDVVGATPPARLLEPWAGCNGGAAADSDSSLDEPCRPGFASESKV
Structure (SMILES) = COc1ccccc1-c1ncc2c(n1)OCCN(c1cccc(C(F)(F)F)c1)C2=O; value = ≥ 100 µM
Structure (SMILES) = Cn1cc(C(=O)N2CCn3nc(C(O)CO)cc3C2)c(=O)[nH]c1=O (centres unmarked); value = ≥ 100 µM
Structure (SMILES) = Cc1noc2c(N(C)C)cc(-c3cccnc3)nc12; value = ≥ 100 µM
Structure (SMILES) = CC(C)(C)CC(O)CNc1nc(C(F)(F)F)ns1 (centres unmarked); value = ≥ 100 µM
Structure (SMILES) = Cc1noc2c(NC3CCC(O)CC3)cc(-c3ccc(F)cc3)nc12 (centres unmarked); value = ≥ 100 µM
Structure (SMILES) = O=C(Nc1cccc(Cl)c1)N1CCN(c2cc(N3CCOCC3)cnn2)CC1; value = ≥ 100 µM
Structure (SMILES) = COc1ccccc1NC(=O)c1cc2c(ccc3ccccc32)oc1=O; value = ≥ 100 µM
Structure (SMILES) = CN(Cc1cccc(OCC(O)CN2CCOCC2)c1)Cc1ccc2nonc2c1 (centres unmarked); value = ≥ 100 µM
Structure (SMILES) = O=C1OC2(c3ccc(O)cc3Oc3cc(O)ccc32)c2ccc(N=C=S)cc21; value = 31.6 µM
Structure (SMILES) = COc1ccc2c(C)cc(=O)oc2c1; value = ≥ 100 µM
Structure (SMILES) = O=C1Nc2ccc(I)cc2/C1=C/c1cc(Br)c(O)c(Br)c1; value = ≥ 100 µM
Structure (SMILES) = CCN(Cc1cccc([S+](=O)([O-])O)c1)c1ccc(C(=C2C=CC(=[N+](CC)Cc3cccc([S+](=O)([O-])O)c3)C=C2)c2ccc(O)cc2[S+](=O)([O-])O)cc1; value = ≥ 100 µM
Structure (SMILES) = COc1cccc(F)c1-c1ncc2c(n1)OCCN(c1cccc(C(F)(F)F)c1)C2=O; value = ≥ 100 µM

Series 3 — cell line: normal organoid sample E; technique: CellTiter-Glo; species: human; sample: normal-adjacent epithelium; concentration: 1 µM; reference: DMSO; measurement: viability
SMILES = CN1CCN(c2cnc3c(C4CCN(C(=O)c5ccc(OC(F)(F)F)cc5N)CC4)ncnc3c2)CC1; value = 94.9% and 97.7%
SMILES = Cn1cncc1[C@](O)(COc1ccc(C#N)cc1-c1ccc(OC(F)(F)F)cc1)c1ccc(C#N)cc1; value = 25.1% and 42.9%
SMILES = Cc1cn(-c2cc(NC(=O)c3ccc4c(c3)CN(c3cncnc3)C[C@@H]4C)cc(C(F)(F)F)c2)cn1; value = 200% and 119%
SMILES = COc1cc(-c2cn(C3CCc4ccccc4N(CC(F)(F)F)C3=O)nn2)ccc1-n1ccc(C)n1 (centres unmarked); value = 111% and 94.8%
SMILES = C[C@H](c1cccc(C#N)c1)n1cc(Cl)cc(C(N)=O)c1=N; value = 111% and 120%
SMILES = CCC(=O)N[C@H]1CC[C@@H](C(=O)N(C)c2ccc(-c3nc4ccccc4o3)cc2)C1; value = 104% and 86.7%

Series 4 — cell line: mouse MPNST tumor cells; technique: high-content immunofluorescence imaging; measured: nuclear SOX9; concentration: 10 µM; time: 12 h; notes: mean of 2 replicates; reference: DMSO control; direction: higher = more nuclear SOX9; measurement: nuclear SOX9 intensity
Compound = O=C(O[C@@H]1C[C@@H]2C[C@H]3C[C@H](C1)N2CC3=O)c1c[nH]c2ccccc12; value = 101 % of DMSO and 88.9 % of DMSO
Compound = CC(C)Oc1ccc(-c2cnc3c(-c4ccnc5ccccc45)cnn3c2)cc1; value = 143 % of DMSO
Compound = CC(c1cc2ccccc2s1)N(O)C(N)=O (centres unmarked); value = 99.1 % of DMSO and 100 % of DMSO and 92.9 % of DMSO
Compound = O=S(=O)(c1cccc2c(Cl)cccc12)N1CCCNCC1; value = 194 % of DMSO
Compound = Nc1nc(Cl)nc2c1ncn2[C@@H]1O[C@H](CO)[C@@H](O)[C@@H]1F; value = 167 % of DMSO
Compound = CCOC(=O)C1=C(N)Oc2cc(O)ccc2C1c1cccnc1 (centres unmarked); value = 113 % of DMSO
Compound = CCN(CCCc1ccccc1)CCCc1ccccc1; value = 210 % of DMSO
Compound = C[C@]12C[C@H](O)[C@H]3[C@@H](CCC4=CC(=O)CC[C@@]43C)[C@@H]1CC[C@@H]2C(=O)CO; value = 81.6 % of DMSO and 85.5 % of DMSO
Compound = O=[N+]([O-])c1cccc2cn[nH]c12; value = 91.6 % of DMSO
Compound = Nc1nc(=O)n([C@@H]2CS[C@H](CO)O2)cc1F; value = 102 % of DMSO
Compound = CCc1c(-c2ccccc2)c(-c2ccccc2)nn1-c1ccccc1-c1cccc(OCC(=O)O)c1; value = 102 % of DMSO
Compound = C#CCCCCCCCCCCCCCCCC(=O)O; value = 109 % of DMSO

Some of these lines once more (series 1):
SMILES = Cn1cc(/C=C2\C(=O)Nc3ccc(S(N)(=O)=O)cc32)c2ccccc21; value = 53.6%
SMILES = COc1cc2ncnc(N3CCN(C(=O)Nc4ccc(Oc5ccccc5)cc4)CC3)c2cc1OC; value = 94.6%
SMILES = Cc1ccc(NC(=O)c2ccc(CN3CCN(C)CC3)cc2)cc1Nc1nccc(-c2cccnc2)n1; value = 102%
SMILES = CCOc1cc2ncnc(Nc3cccc(Br)c3)c2cc1OCC; value = 93.5%
SMILES = Cc1nc(Nc2ncc(C(=O)Nc3c(C)cccc3Cl)s2)cc(N2CCN(CCO)CC2)n1; value = 97.3%
SMILES = CCC(=O)Nc1ccc2ncnc(Nc3cccc(Br)c3)c2c1; value = 96.4%
SMILES = CC(C)[C@H](CO)Nc1nc(Nc2cccc(Cl)c2)c2ncn(C(C)C)c2n1; value = 97.1%
